Experimental data of several laboratories.
Every numbered part comes from another study and shows a few of its results, in no order.

Block 1
Target: RNA binding protein fox-1 homolog 2, RRM domain, GST-SBP tag (RBFOX2, Homo sapiens, UniProt O43251-10, residues 100-194)
Technique: RNA Bind-n-Seq
Form: RNA
Medium: in vitro
Concentration: 365 nM
Setting: natural RNA segment, single round, ends assumed
Relative to: no-protein control
Direction: higher = stronger binding
Quantity: RBNS enrichment (R)
All sequences stand within: GGGAGUUCUACAGUCCGACGAUC … UGGAAUUCUCGGGUGCCAA
Construct (chain): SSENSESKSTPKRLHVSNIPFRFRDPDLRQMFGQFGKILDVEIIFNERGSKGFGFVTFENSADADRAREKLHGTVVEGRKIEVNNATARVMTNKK
GCCUUAGAUUUUACACACACUCCACAGCCAAGCACUGCCACGGUCCUCCAGGACCUGGGAAGCAAAGGCACAGGCCCACGGUGGCCAGCCAUUGUGGUGCCGCCCCAGCU: 0.195
CACUGAUGACUGCGGCUGUCUCGACAGUCAUCUUCACAUCUGCUCCCCUCCACAGUCACUAGAGGGCUCUCUAAUGCUUUCUAAAGGAGCCACCACCUGCUCCGUGGCCA: 0.499
UGUUCAUUUUACUGAUGCACUUUAGUUUUUGGUCUGUUACCUGUUUUCCAGAAAUUUGUGGCCUUUUAGGCGGGAGUUAGGCGACCAAACCAGUGAGAGCCCCAAUCCCU: 0.442
AUUGUCCAGAGUGUCAUCCAGACAGCCGUCGACCAGUUUGCACGUACAGAAACAGCCCCCGAAACCCACGCUUCUGAUUUACAGAAUCAGGUUCCUGUGAUGCAGGCUGA: 1.49
AGAAUCAGGGAGAUGACUGAACUACUGAAAAACAGGUUCCCUUGUAUUUAGGAUCUUAAGGUGUAUAAAAAGCAAACAUGACUUUGCACCUAAGUAAAUUCUGCAUUCUC: 1.35
GAUUAAAGAGGCAGGCGUCACCACACCUGAUAAAUAUUUUCUUCAAGGGAACCAGAGUUUGGUUCUUUAUGCAAAUUUUUUCCCAAUGAAAUAAAACAUAGUUAACUGUG: 0.333
CUUAUAAGCAUGUGAAGAUGUGAUCUUUGUGAUGUUACUUGUACAAACAUAUAUACAUAUCUAUACAUAUCUUUUGAAGUGUUGAAAGGAAUAGUACUUUAUAUUCUUUA: 1.25
AGGACUAAGCAAGGGAAGGGAGGACCGAUUGCCAUCGGCCUUCAUGCUCUGGUUAGGGUGAGGUUGGGGCCAAGAGGACAGGGCCUGGCAGAUCUUCAGUCAUUGGGAAG: 0.412

Block 2
Target: Histone acetyltransferase KAT6A, winged helix 1, GST fusion (KAT6A, Homo sapiens, UniProt Q92794, residues 1-85)
Technique: protein binding microarray
Form: double-stranded DNA, one strand shown
Medium: in vitro
Concentration: not given
Setting: 8-mer, flanks averaged, mean of 2 arrays, mostly near background
Relative to: not given
Direction: higher = stronger binding
Quantity: E-score
Target sequence (chain): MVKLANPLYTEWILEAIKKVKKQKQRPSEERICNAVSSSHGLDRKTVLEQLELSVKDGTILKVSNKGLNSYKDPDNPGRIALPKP
CGCCGAAC: 0.341
ACCTTAAG: -0.145
AGATTTGG: -0.213
ACGGAGTG: 0.264
GCGTAATA: 0.137
CCTGAACC: -0.14
ATCGTGTC: 0.0565
ACTTGCTC: -0.197
GAAACTGA: 0.102
AAACGAGG: -0.169
CCCCGTGA: 0.171
GATTCCAA: -0.199
AATATCCG: 0.128
GTCGCAAA: 0.232
ATGAGGCC: 0.0374
ACCGACCC: 0.32
ACGATGCC: 0.0676
AACGTTCG: -0.0109
CGGGTTGA: 0.278
AATCGCCT: -0.0156
GCGTACGC: 0.405
AGACTATC: -0.0855
CCTATCGA: -0.193
CCCGCGCC: 0.386
CTAATCTA: -0.0701

Block 3
Target: Interferon regulatory factor 7, full length, phosphomimetic (IRF7, Homo sapiens, UniProt Q92985, residues 1-503, S101K/S471D/S472D/S475D/S476D/S477D/S483D/S484D/S487D)
Sequence of UniProt Q92985 (whole entry, unmodified, looked up): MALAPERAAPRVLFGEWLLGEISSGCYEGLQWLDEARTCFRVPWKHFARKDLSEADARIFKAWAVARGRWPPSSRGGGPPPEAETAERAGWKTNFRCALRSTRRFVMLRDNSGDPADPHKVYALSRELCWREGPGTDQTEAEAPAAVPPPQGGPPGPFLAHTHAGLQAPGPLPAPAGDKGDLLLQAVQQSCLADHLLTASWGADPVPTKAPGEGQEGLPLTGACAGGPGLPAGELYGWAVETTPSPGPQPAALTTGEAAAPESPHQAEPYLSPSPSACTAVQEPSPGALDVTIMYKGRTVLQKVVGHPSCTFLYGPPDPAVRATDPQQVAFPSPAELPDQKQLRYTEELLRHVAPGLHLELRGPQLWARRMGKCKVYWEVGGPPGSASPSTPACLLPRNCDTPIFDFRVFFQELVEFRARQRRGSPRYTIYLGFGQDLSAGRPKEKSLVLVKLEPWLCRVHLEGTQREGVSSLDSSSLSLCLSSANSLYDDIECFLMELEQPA
Technique: protein-binding microarray
Form: double-stranded DNA, one strand shown
Medium: in vitro
Concentration: 250 nM
Setting: 60-bp whole probe
Together with: salmon DNA 0.4 mg/ml
Relative to: random background probes
Direction: higher = stronger binding
Quantity: log fluorescence
All sequences stand within: GCCTAGCAC … GTCTTGATTCGCTTGACGCTGCTG
TTAGAACTGGGGTTTCGATGAGTGCTA: 0.803 z-score
GTAGGTATCCTTCTCCTTTAGTGCTAG: -0.0319 z-score
TTTTCTCTGGTTCTTGCTTGGTGCTAG: 2.36 z-score
TTAGGACTGGGGTATGGGTTAGTGCTA: -0.326 z-score
GACGTTTTCCTTTTCCTGACGTGCTAG: 3.56 z-score
GACGAACTGGGGTTTCCAGACGTGCTA: -0.513 z-score
TTATGTTTCGACACTGGGTTAGTGCTA: 1.26 z-score
GACGACCTCAGACTGGAGACGTGCTAG: -0.17 z-score
GACGGACTGGGTTTCGTGACGTGCTAG: 0.868 z-score
TCACTATTATATATATCACTGTGCTAG: 0.346 z-score
TCACTTTTATGCTCTTTCACTGTGCTA: 0.591 z-score
GACGGACTCCTTCTCCTGACGTGCTAG: 0.000475 z-score
GACGATATCAGTTCCGAGACGTGCTAG: 0.211 z-score
CTAGGACTGGGGTATCGGTTAGTGCTA: 0.56 z-score
GACGGTATAGGACTGGGGACGTGCTAG: -0.567 z-score
GACGATTTCAGTATCGAGGCGTGCTAG: 0.15 z-score
GACGGTTTACTTCTCCTGACGTGCTAG: 0.24 z-score
TCACATTCCAATTCTTTTACTGTGCTA: 1.44 z-score
TCATCTTTCCAACTCTGACTGTGCTAG: 1.65 z-score

Block 4
Target: RING finger protein unkempt homolog, zinc fingers 1-6, GST-SBP tag (UNK, Homo sapiens, UniProt Q9C0B0, residues 30-357)
Technique: RNA Bind-n-Seq
Form: RNA
Medium: in vitro
Concentration: not given
Setting: RNA with constant flanks, human and mouse sites, ends assumed
Relative to: input RNA pool
Direction: higher = stronger binding
Quantity: bound/input enrichment
All sequences stand within: GGGAGUUCUACAGUCCGACGAUC … CAACAGAGGAUUGAGCAUCA
Residues (chain): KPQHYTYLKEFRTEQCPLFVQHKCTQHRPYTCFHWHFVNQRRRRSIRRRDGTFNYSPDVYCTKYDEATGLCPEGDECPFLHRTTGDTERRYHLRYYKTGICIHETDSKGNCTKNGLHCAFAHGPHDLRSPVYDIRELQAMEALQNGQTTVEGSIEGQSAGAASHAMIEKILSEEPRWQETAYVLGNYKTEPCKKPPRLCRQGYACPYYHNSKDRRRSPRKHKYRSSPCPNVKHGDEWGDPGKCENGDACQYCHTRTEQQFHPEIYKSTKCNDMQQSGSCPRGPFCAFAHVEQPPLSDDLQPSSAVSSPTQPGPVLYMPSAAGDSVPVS
AUCCAGGCAGCUGACAGCACAGCCGUGAAUGGCAGCAUCACACCCACAGACAAAAAGAUAGGAUUUUUGGGCCUUGGUCUCAUGGGAAGUGGAAUCGUCUCCAACUUGCUAAAAAUGGGU: 0.415 ratio
AAAGAGCCAGUGGUUGUUGAGACAGUAGAAGAGAAAAAGGAACCUAUCCUAGUGUGUCCACCUUUACGAAGCCGAGCAUACACACCACCUGAAGAUCUCCAGAGUCGUUUGGAAUCUUAC: 0.161 ratio
GGAGUUUUGAUUCUUUUAUAUGUUUUUAAAAAAAAGCUUAAGAAACAUUGCUUUAAAAAGGAAGGAAAAAAAAUACAGCAAACCAUUGUUAAAGUAGAAGAGUUUUUAGGUUGAGAAAUG: 3.93 ratio
GGGGUGAGAAAGGAUUUGAAACCAUAAAGUGUUUUAAAGAAAUGAACUCUUCAGAAACAGACUUCCUCCUCUUUUCCUUUCUCCUCUGCUCCACAGCCUGUGCUCUGUUCAGUUCCCAAC: 0.269 ratio
AUUCAUUUUUAAUUUUAAUUUUAUUUUAUACAACGUGUAGACGGUUCCCUGUUCUCUGCAUUUAGAAGUAUACACAGUACAACUGUUAAUUCUGUAAGUAAUUUUUAUAAUUAUGAUGUA: 8.9 ratio
GAAAAUGUUUUGUUUUGGCUAGCAUGUGAAGAUUUUAAGAAAAUGCAAGAUAAGACGCAGAUGCAGGAAAAGGCAAAGGAGAUCUACAUGACCUUUCUGUCCAGCAAGGCCUCAUCACAG: 0.181 ratio
CAGUCCUCAAUGUCUAUUGAAUUUGGCCAAGAAUCUCCUGAGCAAUCCCUUGCUAUGGACUUCAGUCGACAGUCUCCAGAUCACCCUACAGUGGGUGCAGGCGUGCUUCACAUCACUGAA: 0.0755 ratio
GGCCUUCGAGGAAGAGGCCCACCUCCUUCAUGGGCCUCUGAGCCUGAACGCCCAUCCAUUCUUAGUGCAUCAGAACUGAAGGAGCUUGAUAAAUUUGAUAACCUAGAUGCUGAAGCUGAU: 0.368 ratio

For quick reference, copied from above (block 1):
CUUAUAAGCAUGUGAAGAUGUGAUCUUUGUGAUGUUACUUGUACAAACAUAUAUACAUAUCUAUACAUAUCUUUUGAAGUGUUGAAAGGAAUAGUACUUUAUAUUCUUUA: 1.25
GAUUAAAGAGGCAGGCGUCACCACACCUGAUAAAUAUUUUCUUCAAGGGAACCAGAGUUUGGUUCUUUAUGCAAAUUUUUUCCCAAUGAAAUAAAACAUAGUUAACUGUG: 0.333
CACUGAUGACUGCGGCUGUCUCGACAGUCAUCUUCACAUCUGCUCCCCUCCACAGUCACUAGAGGGCUCUCUAAUGCUUUCUAAAGGAGCCACCACCUGCUCCGUGGCCA: 0.499
UGUUCAUUUUACUGAUGCACUUUAGUUUUUGGUCUGUUACCUGUUUUCCAGAAAUUUGUGGCCUUUUAGGCGGGAGUUAGGCGACCAAACCAGUGAGAGCCCCAAUCCCU: 0.442
AGGACUAAGCAAGGGAAGGGAGGACCGAUUGCCAUCGGCCUUCAUGCUCUGGUUAGGGUGAGGUUGGGGCCAAGAGGACAGGGCCUGGCAGAUCUUCAGUCAUUGGGAAG: 0.412
AUUGUCCAGAGUGUCAUCCAGACAGCCGUCGACCAGUUUGCACGUACAGAAACAGCCCCCGAAACCCACGCUUCUGAUUUACAGAAUCAGGUUCCUGUGAUGCAGGCUGA: 1.49
GCCUUAGAUUUUACACACACUCCACAGCCAAGCACUGCCACGGUCCUCCAGGACCUGGGAAGCAAAGGCACAGGCCCACGGUGGCCAGCCAUUGUGGUGCCGCCCCAGCU: 0.195
AGAAUCAGGGAGAUGACUGAACUACUGAAAAACAGGUUCCCUUGUAUUUAGGAUCUUAAGGUGUAUAAAAAGCAAACAUGACUUUGCACCUAAGUAAAUUCUGCAUUCUC: 1.35
